Measured values of several laboratories.
Each line is one published result; not all experiments were run side by side. ± marks the error that the study gave. Values after ≈ are worked out from the molar mass of the structure shown.

Compound | organism | assay | system | setting | how to read | quantity | result
CC(=O)[O-].F[P-](F)(F)(F)(F)F.[Co+2].c1ccc(CN2CCCN3CCN(CCCN(Cc4ccccc4)CC3)CC2)cc1 | Leishmania donovani | parasite growth, resazurin |  | 72 h, amastigote |  | IC50 | > 15 µM
N=C(N)NCCC[C@H](NC(=O)[C@H](CCCNC(=N)N)NC(=O)[C@H](CCCNC(=N)N)NC(=O)[C@H](CCC(N)=O)NC(=O)[C@H](CCCNC(=N)N)NC(=O)[C@H](CCCNC(=N)N)NC(=O)[C@H](CCCCN)NC(=O)[C@H](CCCCN)NC(=O)[C@H](CCCNC(=N)N)NC(=O)CNC(=O)[C@H](Cc1ccc(O)cc1)NC(=O)CNC(=O)CNC(=O)[C@@H]1CCCCNC(=O)CCC(=O)N[C@@H](CCCNC(=N)N)C(=O)N[C@@H](CC(N)=O)C(=O)NCC(=O)N[C@@H](CCC(N)=O)C(=O)N[C@@H](CS)C(=O)N[C@@H](CCC(N)=O)C(=O)N[C@@H](CCCNC(=N)N)C(=O)N[C@@H](CCCCN)C(=O)N1)C(N)=O | Leishmania donovani | Alamar blue | promastigote | 100 µM, 48 h | baseline: control | viability | ~5%
CCCCc1ccc(-c2nc(C)c(C(C)=NNC(=N)N)s2)cc1 | Staphylococcus aureus |  | USA300 MRSA |  |  | MIC | 1.3 µg/mL (≈ 3.95 µM)
CC(=O)[O-].O.S=c1[nH]c2ccccc2[nH]1.S=c1[nH]c2ccccc2[nH]1.[Ag+].c1ccc(P(c2ccccc2)c2ccccc2)cc1.c1ccc(P(c2ccccc2)c2ccccc2)cc1 | Staphylococcus epidermidis |  | MTCC 435, DMSO | 0.1 mL of 50 mg/mL in 8 mm well, 18 to 24 h |  | inhibition zone diameter | 12 mm
C=C(C)[C@@H]1CC[C@]2(CO)CC[C@]3(C)[C@H](CC[C@@H]4[C@@]5(C)CCCNC(C)(C)[C@@H]5CC[C@]43C)[C@@H]12 | Human papillomavirus 11 | viral replication | C-33 A |  | baseline: CC50 over EC50 | selectivity index | < 2
CC1N=C(CCCCCCCCCCC2=CC(CCCCCCCCCCC3=NC(C)C(O)CC3)C3CCCN3C2)CCC1O (stereo not shown) | Leishmania donovani | Alamar Blue | promastigotes | 72 h, 26 °C |  | IC50 | 0.83 ± 0.11 µg/mL
Nc1ccn(C[C@@H](CO)OCP(=O)(O)OCCCS(=O)(=O)CCCCCCCCCCCCCC2CCC2)c(=O)n1 | human alphaherpesvirus 3 |  | HFF, Ellen |  | baseline: CC50 over EC50 | selectivity index | 31
[Cl-].[Cl-].[Mn+2].c1ccc(CN2CCCNCCN(Cc3ccccc3)CCCNCC2)cc1 | Leishmania donovani | parasite growth, resazurin |  | 72 h, amastigote |  | IC50 | > 19 µM
COc1ccc(-c2oc3ccc(-c4cc(OC)c(OC)c(OC)c4)cc3c2C#CC(C)(C)O)cc1 | hepatitis C virus | HCV replicon replication | Huh-7.5.1, genotype 1a transient replicon | 10 µM | baseline: DMSO | remaining activity | 106%
CC#N.[Cl][Mn-2]([Cl])([Cl])[Cl].[Mn+2].c1ccc(CN2CCCN3CCCN(CCCN(Cc4ccccc4)CC3)CC2)cc1 | Leishmania donovani | parasite growth, resazurin |  | 72 h, promastigote |  | IC90 | 9.11 µM
C[N+]1=C2C(c3ccccc3)=[N+]([O-])c3ccccc3N2CCC1 | Bacteroides fragilis | microbial growth | ATCC25285 |  |  | MIC | 4 µg/mL
CC(=O)[O-].CN1CCN2CCN(CC1)CCN(Cc1ccccc1)CC2.F[P-](F)(F)(F)(F)F.[Cu+2] | Leishmania donovani | parasite growth, resazurin |  | 72 h, promastigote |  | IC90 | > 20 µM
Oc1ccc(C(F)(F)F)cc1-c1nc2c(Cl)cc(Cl)cc2[nH]1 | Acinetobacter baumannii | colistin potentiator | AB 3941, colistin-resistant | 5 µM |  | MIC of colistin | 0.5 µg/mL
